Measurements pooled from the literature.
A part holds a random share of what one study measured. Several values in a cell are separate wells, animals, samples, runs or records.
Sequence of UniProt Q9UF33 (whole entry, looked up): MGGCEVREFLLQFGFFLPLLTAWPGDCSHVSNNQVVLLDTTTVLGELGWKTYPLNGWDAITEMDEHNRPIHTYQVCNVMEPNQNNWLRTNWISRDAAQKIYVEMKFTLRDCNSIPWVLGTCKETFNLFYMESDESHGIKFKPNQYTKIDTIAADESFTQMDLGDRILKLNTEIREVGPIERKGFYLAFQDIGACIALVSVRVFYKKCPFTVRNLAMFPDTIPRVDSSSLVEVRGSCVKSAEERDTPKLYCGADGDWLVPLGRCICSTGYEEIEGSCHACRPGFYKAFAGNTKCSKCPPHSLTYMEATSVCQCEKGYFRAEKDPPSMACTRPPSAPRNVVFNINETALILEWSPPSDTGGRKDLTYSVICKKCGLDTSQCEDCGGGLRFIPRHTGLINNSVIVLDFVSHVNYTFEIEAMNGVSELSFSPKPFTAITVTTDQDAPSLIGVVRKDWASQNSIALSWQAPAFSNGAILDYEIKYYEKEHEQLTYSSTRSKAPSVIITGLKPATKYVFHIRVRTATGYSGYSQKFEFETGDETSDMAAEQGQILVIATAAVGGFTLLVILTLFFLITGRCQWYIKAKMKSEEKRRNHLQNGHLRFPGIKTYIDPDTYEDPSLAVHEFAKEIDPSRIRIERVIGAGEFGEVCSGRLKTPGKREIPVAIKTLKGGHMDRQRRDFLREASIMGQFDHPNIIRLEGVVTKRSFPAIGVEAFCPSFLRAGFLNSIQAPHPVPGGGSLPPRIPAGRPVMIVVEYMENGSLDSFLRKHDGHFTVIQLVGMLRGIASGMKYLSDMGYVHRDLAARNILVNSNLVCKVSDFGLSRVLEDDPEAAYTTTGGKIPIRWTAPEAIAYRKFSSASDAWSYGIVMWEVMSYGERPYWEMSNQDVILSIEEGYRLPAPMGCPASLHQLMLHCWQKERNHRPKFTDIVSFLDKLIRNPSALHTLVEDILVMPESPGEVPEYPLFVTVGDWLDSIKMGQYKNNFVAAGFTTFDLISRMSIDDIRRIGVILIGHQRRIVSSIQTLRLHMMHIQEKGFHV
Sequence of UniProt P54646 (whole entry, looked up): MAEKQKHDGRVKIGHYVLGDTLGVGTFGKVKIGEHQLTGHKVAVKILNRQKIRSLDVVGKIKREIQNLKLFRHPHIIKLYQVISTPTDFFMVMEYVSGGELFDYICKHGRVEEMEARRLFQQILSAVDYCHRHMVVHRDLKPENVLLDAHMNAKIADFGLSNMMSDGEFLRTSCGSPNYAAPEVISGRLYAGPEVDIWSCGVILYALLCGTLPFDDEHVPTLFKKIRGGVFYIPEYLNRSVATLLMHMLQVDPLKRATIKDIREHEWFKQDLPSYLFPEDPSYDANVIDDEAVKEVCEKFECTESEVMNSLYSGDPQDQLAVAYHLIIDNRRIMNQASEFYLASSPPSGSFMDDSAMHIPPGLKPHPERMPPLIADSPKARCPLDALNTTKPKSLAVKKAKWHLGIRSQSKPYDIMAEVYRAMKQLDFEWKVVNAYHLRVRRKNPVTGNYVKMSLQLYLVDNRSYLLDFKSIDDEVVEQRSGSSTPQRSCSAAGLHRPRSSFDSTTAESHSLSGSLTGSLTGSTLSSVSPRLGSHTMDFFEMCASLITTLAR

Sample 1 — SMILES: CCOc1ccc(Nc2c3c(nc4ccccc24)CCC3)cc1
cell line | test | setting | cytotoxicity
RAW264.7 | resazurin | 0.066 µM | -3%
HepG2 | resazurin | 0.0166 µM, 48 h | -2% and 1%
RAW264.7 | resazurin | 0.0166 µM | -5% and -3%
PMA-differentiated THP-1 macrophages | – | 0.008 µM, 64 h | 1% and 0%
J774.1 | resazurin | 66.66 µM, 64 h | 100%
PMA-differentiated THP-1 macrophages | – | 40 µM, 64 h | 84% and 91%
HepG2 | resazurin | 0.166 µM, 48 h | 4% and 6%
RAW264.7 | resazurin | 0.66 µM | -4% and 8%
HepG2 | resazurin | 3.32 µM, 48 h | 18% and 20%

Sample 2 — read-out: enzyme activity; mode: inhibitor; concentration: 77 µM; baseline: untreated
Target: DNA polymerase theta, ATPase domain (POLQ, Homo sapiens, UniProt O75417)
Sequence of UniProt O75417 (whole entry, unmodified, looked up): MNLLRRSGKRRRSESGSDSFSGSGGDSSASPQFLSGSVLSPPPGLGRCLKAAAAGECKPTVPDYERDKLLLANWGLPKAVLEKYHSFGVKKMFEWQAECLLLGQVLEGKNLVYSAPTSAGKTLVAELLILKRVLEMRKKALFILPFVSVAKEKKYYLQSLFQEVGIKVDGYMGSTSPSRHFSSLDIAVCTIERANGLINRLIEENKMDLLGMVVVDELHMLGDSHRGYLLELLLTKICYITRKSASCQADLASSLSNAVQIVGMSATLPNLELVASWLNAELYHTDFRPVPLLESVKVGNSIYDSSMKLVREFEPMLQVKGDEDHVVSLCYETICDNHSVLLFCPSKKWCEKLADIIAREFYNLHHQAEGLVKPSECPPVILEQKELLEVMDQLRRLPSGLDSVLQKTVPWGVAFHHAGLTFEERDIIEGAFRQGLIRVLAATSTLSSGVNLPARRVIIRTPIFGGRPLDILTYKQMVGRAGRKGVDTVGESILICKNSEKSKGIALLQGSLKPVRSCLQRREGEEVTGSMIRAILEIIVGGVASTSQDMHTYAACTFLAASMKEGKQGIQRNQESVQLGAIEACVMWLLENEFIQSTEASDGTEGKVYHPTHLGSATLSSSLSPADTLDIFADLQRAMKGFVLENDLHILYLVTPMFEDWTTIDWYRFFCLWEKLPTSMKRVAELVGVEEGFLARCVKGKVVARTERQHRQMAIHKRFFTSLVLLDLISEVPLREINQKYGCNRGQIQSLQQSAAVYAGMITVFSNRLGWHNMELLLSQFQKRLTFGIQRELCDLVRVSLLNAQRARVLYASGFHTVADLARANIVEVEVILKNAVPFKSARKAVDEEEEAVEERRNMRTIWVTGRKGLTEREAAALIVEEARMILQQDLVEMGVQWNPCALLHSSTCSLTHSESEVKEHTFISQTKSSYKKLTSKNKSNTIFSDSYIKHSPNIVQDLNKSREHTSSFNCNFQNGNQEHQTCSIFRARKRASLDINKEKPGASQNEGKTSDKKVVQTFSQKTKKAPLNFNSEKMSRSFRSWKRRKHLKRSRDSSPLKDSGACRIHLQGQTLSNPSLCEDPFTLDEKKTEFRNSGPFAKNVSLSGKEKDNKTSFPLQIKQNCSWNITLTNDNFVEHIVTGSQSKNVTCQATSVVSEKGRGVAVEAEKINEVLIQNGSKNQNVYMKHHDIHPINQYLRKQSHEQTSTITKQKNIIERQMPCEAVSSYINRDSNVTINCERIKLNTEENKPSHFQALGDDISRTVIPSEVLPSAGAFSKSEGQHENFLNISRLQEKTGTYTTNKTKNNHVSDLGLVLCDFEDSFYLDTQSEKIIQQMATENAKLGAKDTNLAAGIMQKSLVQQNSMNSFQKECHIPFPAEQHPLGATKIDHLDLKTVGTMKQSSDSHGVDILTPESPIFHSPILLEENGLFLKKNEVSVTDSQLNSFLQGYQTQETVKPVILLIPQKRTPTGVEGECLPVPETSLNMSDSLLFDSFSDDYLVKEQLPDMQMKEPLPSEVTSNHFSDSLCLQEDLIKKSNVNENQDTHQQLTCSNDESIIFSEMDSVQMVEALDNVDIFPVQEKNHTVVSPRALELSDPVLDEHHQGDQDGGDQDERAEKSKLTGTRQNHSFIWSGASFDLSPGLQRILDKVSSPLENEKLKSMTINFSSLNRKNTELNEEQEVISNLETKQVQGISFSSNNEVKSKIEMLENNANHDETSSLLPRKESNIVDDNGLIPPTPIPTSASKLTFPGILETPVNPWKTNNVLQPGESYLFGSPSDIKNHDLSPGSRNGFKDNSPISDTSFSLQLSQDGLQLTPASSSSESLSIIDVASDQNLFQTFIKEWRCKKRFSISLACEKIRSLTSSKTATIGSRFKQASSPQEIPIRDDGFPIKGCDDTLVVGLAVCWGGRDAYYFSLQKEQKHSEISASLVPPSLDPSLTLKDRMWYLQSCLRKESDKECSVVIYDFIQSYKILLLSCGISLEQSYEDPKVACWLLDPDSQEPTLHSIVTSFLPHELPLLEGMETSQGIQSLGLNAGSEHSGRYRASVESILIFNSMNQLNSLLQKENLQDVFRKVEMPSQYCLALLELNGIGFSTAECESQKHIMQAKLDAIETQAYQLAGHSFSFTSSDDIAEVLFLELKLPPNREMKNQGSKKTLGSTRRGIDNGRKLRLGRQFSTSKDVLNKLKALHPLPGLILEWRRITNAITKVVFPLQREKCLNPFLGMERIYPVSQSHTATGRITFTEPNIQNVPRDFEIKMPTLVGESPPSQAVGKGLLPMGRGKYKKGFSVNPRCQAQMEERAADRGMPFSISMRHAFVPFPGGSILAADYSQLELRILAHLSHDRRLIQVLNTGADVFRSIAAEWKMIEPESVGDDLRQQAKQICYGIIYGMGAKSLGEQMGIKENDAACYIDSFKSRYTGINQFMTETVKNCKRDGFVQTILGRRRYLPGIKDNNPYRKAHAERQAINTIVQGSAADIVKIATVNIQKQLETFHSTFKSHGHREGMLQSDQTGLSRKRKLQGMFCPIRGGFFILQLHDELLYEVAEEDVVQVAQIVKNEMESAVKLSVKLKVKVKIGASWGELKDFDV
Compound | remaining activity
CC(C(O)c1ccc(O)cc1)N1CCC(Cc2ccccc2)CC1 (stereo not drawn) | 104% and 90.7%
CCN(CC)CCNC(=O)COc1ccc(OC)cc1 | 102%
CN1C(C(=O)Nc2ccccn2)=C(O)c2sc(Cl)cc2S1(=O)=O | 86%
Cc1[nH]c(/C=C2\C(=O)Nc3ccccc32)c(C)c1CCC(=O)O | 109%
Nc1[nH]nc2nc3ccccc3nc12 | 105%
CNc1cc2c(Nc3cccc(Br)c3)ncnc2cn1 | 124%

Sample 3 — read-out: enzyme activity; mode: inhibitor; concentration: 0.5 µM; baseline: control
Target: Dual specificity protein kinase TTK (TTK, Homo sapiens, UniProt P33981)
Sequence of UniProt P33981 (whole entry, looked up): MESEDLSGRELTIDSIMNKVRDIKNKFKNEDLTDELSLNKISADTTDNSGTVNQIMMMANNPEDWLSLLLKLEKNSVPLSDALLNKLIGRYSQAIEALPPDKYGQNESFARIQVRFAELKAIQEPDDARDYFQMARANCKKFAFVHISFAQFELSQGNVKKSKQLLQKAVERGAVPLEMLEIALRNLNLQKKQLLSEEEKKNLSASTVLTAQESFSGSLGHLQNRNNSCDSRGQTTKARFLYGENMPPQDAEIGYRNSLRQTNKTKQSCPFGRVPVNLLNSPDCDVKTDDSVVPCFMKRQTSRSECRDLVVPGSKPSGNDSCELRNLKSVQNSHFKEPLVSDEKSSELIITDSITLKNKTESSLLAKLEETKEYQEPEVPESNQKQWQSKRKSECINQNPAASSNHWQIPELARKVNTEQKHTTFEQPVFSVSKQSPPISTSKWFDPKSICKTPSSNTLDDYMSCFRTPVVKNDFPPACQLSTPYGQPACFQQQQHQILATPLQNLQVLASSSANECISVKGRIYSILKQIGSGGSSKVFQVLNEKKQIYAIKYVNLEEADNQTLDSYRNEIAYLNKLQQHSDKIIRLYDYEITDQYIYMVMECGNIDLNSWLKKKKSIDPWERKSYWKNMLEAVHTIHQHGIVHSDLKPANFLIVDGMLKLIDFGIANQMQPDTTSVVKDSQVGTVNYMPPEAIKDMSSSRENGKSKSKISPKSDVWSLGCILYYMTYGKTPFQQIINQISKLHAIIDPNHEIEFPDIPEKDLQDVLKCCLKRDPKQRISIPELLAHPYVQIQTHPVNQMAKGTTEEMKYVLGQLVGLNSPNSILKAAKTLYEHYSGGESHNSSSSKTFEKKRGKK
Compound | remaining activity
CC(C)(C)c1nc2c3cc[nH]c(=O)c3c3cc(F)ccc3c2[nH]1 | 65.3%
CCCCc1c(-c2ccc(O)cc2)[nH]c2nccnc12 | 91.6%
O=C(c1ccccc1)c1ccc(N2CCOCC2)cc1O | 104%
NC(=O)c1cccc(-c2cc(Nc3ccc(OC(F)(F)F)cc3)ncn2)c1 | 91.4%
O=Nc1c(-c2c(O)[nH]c3ccccc23)[nH]c2ccccc12 | 68%
O=C1c2ccccc2-c2nc3nnnn3nc21 | 125%
C[C@@H](N)[C@H]1CC[C@H](C(=O)Nc2ccncc2)CC1 | 102%
Nc1nc(Nc2ccc(S(N)(=O)=O)cc2)nn1C(=S)Nc1c(F)cccc1F | 60.6%
N#C/C(=C(/N)SC1C=CC=CC1)c1cccc(C(O)c2ccncc2)c1 (stereo not drawn) | 111%

Sample 4 — read-out: cell-free assay; method: competition with immobilised ligand; concentration: 1 µM
SMILES: CO[C@H]1CC[C@H](CNc2ccc(S(=O)(=O)NC(=O)c3ccc(N4CCN(CC5=C(c6ccc(Cl)cc6)CC(C)(C)CC5)CC4)cc3Oc3cnc4[nH]ccc4c3)cc2[N+](=O)[O-])CC1
target | remaining binding [%]
Rhodopsin kinase GRK7 (GRK7, Homo sapiens, UniProt Q8WTQ7) | 100
Serine/threonine-protein kinase Nek9 (NEK9, Homo sapiens, UniProt Q8TD19) | 95
Microtubule-associated serine/threonine-protein kinase 1 (MAST1, Homo sapiens, UniProt Q9Y2H9) | 96
Testis-specific serine/threonine-protein kinase 1 (TSSK1B, Homo sapiens, UniProt Q9BXA7) | 67
5'-AMP-activated protein kinase catalytic subunit alpha-2 (PRKAA2, Homo sapiens, UniProt P54646) | 93
Dual specificity mitogen-activated protein kinase kinase 3 (MAP2K3, Homo sapiens, UniProt P46734) | 92
Ribosomal protein S6 kinase alpha-5, N-terminal kinase domain (RPS6KA5, Homo sapiens, UniProt O75582) | 65
Serine/threonine-protein kinase mTOR (MTOR, Homo sapiens, UniProt P42345) | 50
Ribosomal protein S6 kinase alpha-1, N-terminal kinase domain (RPS6KA1, Homo sapiens, UniProt Q15418) | 69
Epidermal growth factor receptor (EGFR, Homo sapiens, UniProt P00533) | 62
Serine/threonine-protein kinase PAK 4 (PAK4, Homo sapiens, UniProt O96013) | 78
Phosphatidylinositol 4,5-bisphosphate 3-kinase catalytic subunit gamma isoform (PIK3CG, Homo sapiens, UniProt P48736) | 86
Mitogen-activated protein kinase 9 (MAPK9, Homo sapiens, UniProt P45984) | 82
Phosphorylase b kinase gamma catalytic chain, liver/testis isoform (PHKG2, Homo sapiens, UniProt P15735) | 74
Ephrin type-A receptor 6 (EPHA6, Homo sapiens, UniProt Q9UF33) | 99

A few entries again (sample 1):
cell line | test | setting | cytotoxicity
RAW264.7 | resazurin | 0.0166 µM | -5% and -3%
PMA-differentiated THP-1 macrophages | – | 0.008 µM, 64 h | 1% and 0%
J774.1 | resazurin | 66.66 µM, 64 h | 100%
PMA-differentiated THP-1 macrophages | – | 40 µM, 64 h | 84% and 91%
HepG2 | resazurin | 0.166 µM, 48 h | 4% and 6%
RAW264.7 | resazurin | 0.66 µM | -4% and 8%
HepG2 | resazurin | 3.32 µM, 48 h | 18% and 20%
